Experimental data of several laboratories.
Each line is one published result; not all experiments were run side by side. ± marks the error that the study gave.

COc1cc2c(Oc3ccc4[nH]c(C)cc4c3F)ccnc2cc1OCC1(N)CC1  grade 1 or 2 Rash (paediatric recurrent refractory sarcoma; 8 mg): 0%
Cn1cncc1-c1c(F)cncc1NC(=O)c1c(N)nn2cc(F)cnc12  dose-limiting toxicity platelet decrease (human patients; oral, 130 mg once daily, 21 days): 0%
CCCCCOc1ccc(-c2ccc(-c3ccc(C(=O)N[C@H]4C[C@@H](O)[C@@H](OCC[N+](C)(C)C)NC(=O)[C@@H]5[C@@H](O)[C@@H](C)CN5C(=O)[C@H]([C@@H](C)O)NC(=O)[C@H]([C@H](O)[C@@H](O)c5ccc(O)cc5)NC(=O)[C@@H]5C[C@@H](O)CN5C(=O)[C@H]([C@@H](C)O)NC4=O)cc3)cc2)cc1  albumin (adult ICU patients, mITT, serum; dose not given, day 14): 26.5 g/L
C[C@]1(CO)Cc2ncn(-c3ccc(C#N)c(Cl)c3)c2C(=O)O1  linearity index (human, plasma; 10 mg multiple doses; baseline: dose-proportional exposure): 107%
CCCCCCCCCCC[C@H](OC1OC[C@H](O)[C@@H](O)[C@@H]1O)[C@H](O)[C@H](O)C[C@@H]1CC(=O)N[C@H](CO)C(=O)N[C@H]([C@H](O)c2ccc(O)cc2)C(=O)N[C@H](CCN)C(=O)NCC(=O)N[C@@H](CC(N)=O)C(=O)N[C@@H](CO)C(=O)N[C@@H]([C@H](O)C(N)=O)C(=O)N1 (stereo partly shown)  freeze-thaw stability, deviation (LC-MS/MS; rabbit plasma; 800 ng/mL, 3 freeze-thaw cycles; baseline: nominal concentration): -0.802%
CO[C@H]1C[C@@H]2CC[C@@H](C)[C@@](O)(O2)C(=O)C(=O)N2CCCC[C@H]2C(=O)O[C@H]([C@H](C)C[C@@H]2CC[C@@H](OC(=O)NCCOCCOCCOCCOCCOCCOCCOCCOCCC(=O)N3CCc4cc(Cn5nc(-c6ccc7oc(N)nc7c6)c6c(N)ncnc65)ccc4C3)[C@H](OC)C2)C[C@@H](O)[C@H](C)/C=C(\C)[C@@H](O)[C@@H](OC)C(=O)[C@H](C)C[C@H](C)/C=C/C=C/C=C/1C  TRAE incidence (phase 1 dose escalation, measured: vomiting; advanced solid tumour patients; intravenous, 16 mg weekly, grade ≥3): 0%
N=C(N)NCCC[C@@H](NC(=O)[C@@H](N)Cc1ccccc1)C(=O)N[C@@H](Cc1ccccc1)C(=O)N[C@@H](CCCCN)C(N)=O  lag time (early Huntington's disease patients, plasma; subcutaneous, 5 mg, day 1, median): 0 h
CCc1ccc(CC/C=C/c2ccc3c(c2)C(=O)CC3)cc1  Urea (Sprague-Dawley rat, male; oral, 30 mg/kg/day, 14 days): 4.93 mM
C=C(C)[C@@H]1CCC(C)=C[C@H]1c1c(O)cc(CCC)cc1O  plasma concentration (LC-MS/MS; Scn1a+/− mice, both sexes, plasma; intraperitoneal, 30 mg/kg, after hyperthermia protocol): 3100 ± 300 ng/mL
CCOC(=O)C1=C[C@@H](OC(CC)CC)[C@H](NC(C)=O)[C@@H](N)C1  metabolic clearance (Sprague-Dawley rat male, plasma and urine; oral, 30 mg/kg): 98.8 mL/h
O=C(Nc1ccccc1)C1CCN(C(=O)Oc2cccnc2)CC1  subjects with adverse event (measured: metabolism and nutrition disorders; healthy women; oral, 100 mg, 9 days): 15.4%
CN1CC[C@@H](c2c(O)cc(O)c3c(=O)cc(-c4ccc(C(F)(F)F)cc4Cl)oc23)[C@@H]1CO  adverse event incidence (measured: Sepsis; relapsed or refractory haematological malignancies; oral, dose not given, grade 3 to 4): 12.5%
CC(C)(C(=O)NC1C2CC3CC1CC(C(N)=O)(C3)C2)N1CCN(c2ccc(C(F)(F)F)cn2)CC1 (stereo not shown)  dose-normalised free Cmax (human, plasma; 10 mg once daily, 5 days, median): 0.168 (ng/mL)/mg

Repeated from above:
CN1CC[C@@H](c2c(O)cc(O)c3c(=O)cc(-c4ccc(C(F)(F)F)cc4Cl)oc23)[C@@H]1CO  adverse event incidence (measured: Sepsis; relapsed or refractory haematological malignancies; oral, dose not given, grade 3 to 4): 12.5%
